Values quoted from earlier work, collected from citations in different studies.
Each line is one published result; not all experiments were run side by side. Numbers after ± are the reported error.

Chains of the proteins cited; added tags and fusions are not shown. Residues count along the entry.
UniProt Q14790, 214-479 D374A/D384A/C409S/C433S limits assumed: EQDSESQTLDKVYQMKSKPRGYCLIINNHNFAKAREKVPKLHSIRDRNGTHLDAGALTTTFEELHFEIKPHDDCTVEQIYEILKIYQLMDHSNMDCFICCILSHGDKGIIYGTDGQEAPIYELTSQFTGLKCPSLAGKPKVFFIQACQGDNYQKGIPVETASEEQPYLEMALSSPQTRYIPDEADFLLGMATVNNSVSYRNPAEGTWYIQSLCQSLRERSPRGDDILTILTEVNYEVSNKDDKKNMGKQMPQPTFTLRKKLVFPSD

`COc1cc(Cc2cnc(N)nc2N)cc(/C=C/C(=O)N2N=Cc3ccccc3C2C=C(C)C)c1OC` (racemic) gave a Ki of 8.3 ± 0.2 nM (Dihydrofolate reductase (dfrA, Bacillus anthracis, UniProt Q81R22)).
For `Cc1cc(C(=O)N[C@@H](Cc2cccc3ccccc23)C(=O)N[C@@H](CC(C)C)C(=O)N[C@H](C=O)C[C@@H]2CCCNC2=O)no1`, the CC50 was greater than 100000 nM (Caco-2; cytotoxicity).
The IC50 of `O=C(c1ccc(N2CCOCC2)cc1)N1CCC[C@@H](N(C(=O)CCl)c2ccccc2)C1` is reported as 700 nM (Caspase-8 (CASP8, Homo sapiens, UniProt Q14790, C409S/C433S/D374A/D384A); probe labeling, competitive gel-based ABPP; previously reported value).
For `CC(=O)N1c2ccc(-c3ccc(C#N)cc3)cc2[C@@H](Nc2ncccc2F)[C@@H](C)[C@H]1C1CC1`, the IC50 was less than 100 nM (Bromodomain-containing protein 4, BD2 (BRD4, Homo sapiens, UniProt O60885); inhibitor; 2).

For quick reference, copied from above:
For `CC(=O)N1c2ccc(-c3ccc(C#N)cc3)cc2[C@@H](Nc2ncccc2F)[C@@H](C)[C@H]1C1CC1`, the IC50 was less than 100 nM (Bromodomain-containing protein 4, BD2 (BRD4, Homo sapiens, UniProt O60885); inhibitor; 2).
